Measurements gathered from unrelated publications.
Values joined by “and” are separate records of one study, mostly repeats; a detail may differ. Numbers after ± are the reported error.
IDE: Insulin-degrading enzyme (IDE, Homo sapiens, UniProt P14735)

Compound = CN(C(=O)n1cnc(-c2ccc[n+]([O-])c2)c1)C1CCCCC1; test = item: LEA; system = human, plasma; conditions = 100 mg single dose; measurement = AUC(0-t); result = 408 ng·h/mL
Compound = Cc1[nH]c(C)c(-c2ccc(-c3ccc(Cl)cc3)nc2)c(=O)c1Cl; target or system = Plasmodium yoelii; system = 17XL; conditions = 384-well; measurement = IC50; result = 348 ± 164 nM
Compound = COc1ccccc1-c1ccc([C@H]2[C@@H](CO)N[C@@H]2CNC(=O)C2CCCC2)cc1; target or system = IDE; test = enzyme activity, inhibitor, fluorogenic kinetic; conditions = with: Mca-RPPGFSAFK(Dnp)-OH substrate; measurement = EC50; result = 5100 nM
Compound = CCOc1ccc2cc(-c3nn(CC4CCN(C)CC4)c4ncnc(N)c34)ccc2n1; target or system = Theileria equi; test = hydroethidine flow cytometry; system = USDA Florida; conditions = 0.3 µM, 72 h; measurement = % of maximum PPE; result = 103%
Compound = Cc1[nH]c(C)c(-c2ccc(OCc3cc(C(F)(F)F)cc(C(F)(F)F)c3)nc2)c(=O)c1Br; target or system = Plasmodium yoelii; system = 17XL; conditions = 384-well; measurement = IC50; result = 105 ± 42 nM
Compound = CCOc1ccc2cc(-c3nn(CC4CCNCC4)c4ncnc(N)c34)ccc2c1; target or system = Theileria equi; test = hydroethidine flow cytometry; system = USDA Florida; conditions = 30 µM, 72 h; measurement = % of maximum PPE; result = 5.28%
Compound = CCC(=O)N1CCOc2c(cc(-c3ccc(OC)c(OC)c3)cc2OC[C@H]2CCCN(C)C2)C1; target or system = HBL-1; conditions = 1 µM, 120 h; measurement = viability; result = 101%
Compound = Cc1nc(C)c(-c2ccc(C(=O)c3ccccc3)cc2)c(O)c1Br; target or system = Plasmodium yoelii; system = 17XL; conditions = 384-well; measurement = IC50; result = 425 ± 87 nM
Compound = Cc1cc(/N=N/c2ccc(S(=O)(=O)Nc3ccccn3)cc2)c(N)cc1O; target or system = HBL-1; conditions = 1 µM, 120 h; measurement = viability; result = 101%
Compound = CCCCCCCc1c(C)[nH]c2ccccc2c1=O; target or system = Plasmodium yoelii; system = 17XL; conditions = 384-well; measurement = IC50; result = 195 ± 89 nM
Compound = Cc1ncsc1-c1ccc([C@H](C)NC(=O)[C@@H]2C[C@@H](O)CN2C(=O)[C@@H](NC(=O)COCCOCCOCCOCCOCC(=O)N2CC(Nc3cc(C(=O)NC[C@H](O)CN4CCc5ccccc5C4)ncn3)C2)C(C)(C)C)cc1; target or system = human MEP50; test = degrader, Western blot; system = MDA-MB-468; conditions = 2 µM; measurement = time to degradation; result = > 48 h
Compound = Oc1ccccc1-c1n[nH]cc1-c1ccnc2ccccc12; target or system = GCN2 (Candida albicans); test = kinase binding, MIB/MS competition; system = Candida albicans lysate; conditions = 1 µM; scale = baseline: DMSO; measurement = log2 fold change; result = -0.05
Compound = CC(C)NCC(O)c1ccc(O)c(O)c1 (stereo not drawn); system = ventricular cardiomyocytes, C57BL/6 mouse; conditions = dose not given, 0.088 s; measurement = sarcomere length; result = 1.72 µm
Compound = C/C=C(/C)C(=O)OC[C@H]1[C@@H](Cc2ccc(F)cc2)CO[C@@H]1c1ccc(F)cc1; target or system = NF-κB; test = reporter gene; system = HEK293/NF-κB-luc; conditions = 4 h, with: TNFα 2 ng/mL; measurement = IC50; result = ≥ 20000 nM
Compound = Cc1[nH]c(C)c(-c2ccc(OCc3ccccc3)cc2)c(=O)c1Br; target or system = Plasmodium yoelii; system = 17XL; conditions = 384-well; measurement = IC50; result = 180 ± 70 nM
Compound = CCOc1ccc2cc(-c3nn(CC4CCN(C)CC4)c4ncnc(N)c34)ccc2c1; target or system = Theileria equi; test = hydroethidine flow cytometry; system = USDA Florida; conditions = 9 µM, 72 h; measurement = % of maximum PPE; result = 17.3%
Compound = O=C(O)CNC(=O)Cc1ccccc1; system = ventricular cardiomyocytes, C57BL/6 mouse; conditions = dose not given, 0.068 s; measurement = sarcomere length; result = 1.72 µm
Compound = OC(CCN1CCCCC1)(c1ccccc1)C1CC2C=CC1C2 (stereo not drawn); test = resting-state EEG; system = healthy elderly humans; conditions = oral, 2 mg, eyes closed, LS mean; scale = baseline: baseline; measurement = change, theta power, EEG O1-Pz; result = -15.2%
Compound = O=C(Nc1ccc(OC2CCN(Cc3ccc(F)cc3)C2)c(Cl)c1)c1cccs1 (stereo not drawn); target or system = Plasmodium yoelii; system = 17XL; conditions = 384-well; measurement = IC50; result = 2180 ± 1610 nM
Compound = COc1ccc(F)cc1C(=O)NCc1ccc(-c2nn([C@@H](C)C(F)(F)F)c(N)c2C(N)=O)cc1; target or system = MEK1/MEK2 human; test = probe binding, competitive chemoproteomics; system = human PBMCs; conditions = 10 µM; measurement = inhibition; result = 60.2%
Compound = CCc1c(C)nc(-c2ccc(Cl)s2)nc1Nc1ccc(CC(=O)O)cc1; test = histology; system = C57BL/6J mouse, MCD diet MASH model; conditions = intraperitoneal, 0.3 mg/kg daily, MCD diet 6 weeks, dosed final two weeks; scale = baseline: untreated; measurement = liver parenchymal dysregulation; result = decreased
Compound = Cc1[nH]c(C)c(-c2ccc(OCc3ccccc3C(F)(F)F)nc2)c(=O)c1Br; target or system = Plasmodium yoelii; system = 17XL; conditions = 384-well; measurement = IC50; result = 46 ± 28 nM
Compound = O=C(O)c1ccnc(C(=O)O)c1; target or system = HBL-1; conditions = 0.1 µM, 120 h; measurement = viability; result = 112%
Compound = O=C(Nc1cccc(C2=NCCN2)c1)Nc1cccc(C2=NCCN2)c1; target or system = Theileria equi; test = parasite growth, flow cytometry; system = horse erythrocytes, USDA Florida strain; conditions = 0.043 µM, 72 h; measurement = inhibition; result = 13.5%
Compound = NC(=O)c1cnc2[nH]ccc2c1N[C@@H]1[C@@H]2CC3C[C@H]1C[C@@](O)(C3)C2; test = flow cytometry, item: CD4+ effector T cells; system = Japanese healthy subjects, peripheral blood; conditions = oral, 10 mg twice daily, day 4; measurement = change from baseline; result = 0%
Compound = O=C(NC1CCCC1)N1CC(=O)N2[C@H](CO)[C@@H](c3ccc(-c4cccnc4)cc3)[C@@H]2C1; target or system = IDE; test = enzyme activity, inhibitor, fluorogenic kinetic; conditions = with: Mca-RPPGFSAFK(Dnp)-OH substrate; measurement = EC50; result = 14000 nM
Compound = C[C@H]1O[C@@H](O[C@H]2CC[C@@]3(C)[C@@H](CC[C@]4(C)[C@@H]3C=C[C@]35OC[C@@]6(CCC(C)(C)C[C@H]63)[C@@H](O)C[C@]54C)[C@]2(C)CO)[C@H](O)[C@@H](O[C@@H]2O[C@H](CO)[C@@H](O)[C@H](O)[C@H]2O)[C@H]1O; test = Western blot, item: caspase3; system = chronic-plus-binge ethanol-fed mice, liver; conditions = dose not given, medium dose, unit not given; scale = baseline: β-actin; measurement = protein level; result = 0.307 and 0.795 and 0.758
Compound = c1coc(-c2n[nH]cc2-c2ccnc3ccccc23)c1; target or system = BCK1 (Candida albicans); test = kinase binding, MIB/MS competition; system = Candida albicans lysate; conditions = 1 µM; scale = baseline: DMSO; measurement = log2 fold change; result = -0.29
Compound = Cc1[nH]c(C)c([N+](=O)[O-])c(=O)c1-c1ccc(Oc2ccc(OC(F)(F)F)cc2)cc1; target or system = Plasmodium yoelii; system = 17XL; conditions = 384-well; measurement = IC50; result = 834 ± 810 nM
Compound = CC(C)n1ncc2c(C(=O)NCC3(C)CNC3)cc(C3CC3)nc21; target or system = enterovirus D68; system = recombinant US/MO/14-18947 wild type; conditions = 1500 nM; measurement = plaque reduction; result = 100%

Excerpt of the above:
Compound = Cc1[nH]c(C)c(-c2ccc(OCc3ccccc3C(F)(F)F)nc2)c(=O)c1Br; target or system = Plasmodium yoelii; system = 17XL; conditions = 384-well; measurement = IC50; result = 46 ± 28 nM
Compound = CCOc1ccc2cc(-c3nn(CC4CCN(C)CC4)c4ncnc(N)c34)ccc2c1; target or system = Theileria equi; test = hydroethidine flow cytometry; system = USDA Florida; conditions = 9 µM, 72 h; measurement = % of maximum PPE; result = 17.3%
Compound = CC(C)NCC(O)c1ccc(O)c(O)c1 (stereo not drawn); system = ventricular cardiomyocytes, C57BL/6 mouse; conditions = dose not given, 0.088 s; measurement = sarcomere length; result = 1.72 µm
Compound = O=C(O)c1ccnc(C(=O)O)c1; target or system = HBL-1; conditions = 0.1 µM, 120 h; measurement = viability; result = 112%
Compound = Cc1[nH]c(C)c([N+](=O)[O-])c(=O)c1-c1ccc(Oc2ccc(OC(F)(F)F)cc2)cc1; target or system = Plasmodium yoelii; system = 17XL; conditions = 384-well; measurement = IC50; result = 834 ± 810 nM
